Published values from different studies.
± gives the spread as reported.
HLA class I histocompatibility antigen, A alpha chain allele A*02:01: HLA class I histocompatibility antigen, A alpha chain, allele A*02:01 (Homo sapiens, UniProt P04439)
BLK SH2 domain: Tyrosine-protein kinase Blk, SH2 domain (BLK, Homo sapiens, UniProt P51451)
UniProt P51451, sequence (whole entry, looked up): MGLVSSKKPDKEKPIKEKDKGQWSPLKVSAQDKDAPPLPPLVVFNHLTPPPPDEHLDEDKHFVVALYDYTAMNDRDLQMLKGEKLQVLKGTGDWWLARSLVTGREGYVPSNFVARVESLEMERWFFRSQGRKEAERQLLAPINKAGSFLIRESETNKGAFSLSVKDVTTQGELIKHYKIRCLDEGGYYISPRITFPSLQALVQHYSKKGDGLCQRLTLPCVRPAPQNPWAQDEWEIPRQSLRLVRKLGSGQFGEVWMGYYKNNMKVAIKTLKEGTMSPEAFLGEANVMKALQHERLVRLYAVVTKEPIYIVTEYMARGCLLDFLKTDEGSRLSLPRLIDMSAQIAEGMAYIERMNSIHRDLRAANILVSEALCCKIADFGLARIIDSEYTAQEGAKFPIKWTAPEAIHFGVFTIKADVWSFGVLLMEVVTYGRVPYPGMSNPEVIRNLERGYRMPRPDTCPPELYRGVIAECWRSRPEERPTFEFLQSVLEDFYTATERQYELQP
ampC: Beta-lactamase (ampC, Escherichia coli K-12, UniProt P00811)
UniProt P00811, sequence (whole entry, looked up): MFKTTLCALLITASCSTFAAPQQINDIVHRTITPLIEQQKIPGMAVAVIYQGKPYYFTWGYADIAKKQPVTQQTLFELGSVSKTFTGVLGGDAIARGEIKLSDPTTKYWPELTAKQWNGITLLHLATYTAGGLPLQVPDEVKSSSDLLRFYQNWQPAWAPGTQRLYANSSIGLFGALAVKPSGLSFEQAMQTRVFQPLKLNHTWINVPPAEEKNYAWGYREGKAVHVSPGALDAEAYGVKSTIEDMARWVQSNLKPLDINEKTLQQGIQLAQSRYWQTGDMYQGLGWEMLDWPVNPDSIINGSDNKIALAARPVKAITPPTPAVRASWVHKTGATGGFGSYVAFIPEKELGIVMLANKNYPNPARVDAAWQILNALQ
HLA class I histocompatibility antigen, A alpha chain allele A*24:02: HLA class I histocompatibility antigen, A alpha chain, allele A*24:02 (Homo sapiens, UniProt P04439)
UniProt P03023, sequence (whole entry, unmodified, looked up): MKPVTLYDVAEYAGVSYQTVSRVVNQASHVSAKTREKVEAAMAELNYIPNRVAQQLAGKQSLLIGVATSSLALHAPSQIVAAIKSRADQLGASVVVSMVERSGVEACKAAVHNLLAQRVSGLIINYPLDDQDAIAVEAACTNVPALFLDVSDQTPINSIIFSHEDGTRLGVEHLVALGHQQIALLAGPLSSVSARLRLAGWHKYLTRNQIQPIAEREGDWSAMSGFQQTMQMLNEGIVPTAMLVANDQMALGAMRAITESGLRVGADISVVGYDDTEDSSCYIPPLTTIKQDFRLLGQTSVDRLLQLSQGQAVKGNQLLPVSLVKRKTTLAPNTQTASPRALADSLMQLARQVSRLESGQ
UniProt Q96PY6, sequence (whole entry, looked up): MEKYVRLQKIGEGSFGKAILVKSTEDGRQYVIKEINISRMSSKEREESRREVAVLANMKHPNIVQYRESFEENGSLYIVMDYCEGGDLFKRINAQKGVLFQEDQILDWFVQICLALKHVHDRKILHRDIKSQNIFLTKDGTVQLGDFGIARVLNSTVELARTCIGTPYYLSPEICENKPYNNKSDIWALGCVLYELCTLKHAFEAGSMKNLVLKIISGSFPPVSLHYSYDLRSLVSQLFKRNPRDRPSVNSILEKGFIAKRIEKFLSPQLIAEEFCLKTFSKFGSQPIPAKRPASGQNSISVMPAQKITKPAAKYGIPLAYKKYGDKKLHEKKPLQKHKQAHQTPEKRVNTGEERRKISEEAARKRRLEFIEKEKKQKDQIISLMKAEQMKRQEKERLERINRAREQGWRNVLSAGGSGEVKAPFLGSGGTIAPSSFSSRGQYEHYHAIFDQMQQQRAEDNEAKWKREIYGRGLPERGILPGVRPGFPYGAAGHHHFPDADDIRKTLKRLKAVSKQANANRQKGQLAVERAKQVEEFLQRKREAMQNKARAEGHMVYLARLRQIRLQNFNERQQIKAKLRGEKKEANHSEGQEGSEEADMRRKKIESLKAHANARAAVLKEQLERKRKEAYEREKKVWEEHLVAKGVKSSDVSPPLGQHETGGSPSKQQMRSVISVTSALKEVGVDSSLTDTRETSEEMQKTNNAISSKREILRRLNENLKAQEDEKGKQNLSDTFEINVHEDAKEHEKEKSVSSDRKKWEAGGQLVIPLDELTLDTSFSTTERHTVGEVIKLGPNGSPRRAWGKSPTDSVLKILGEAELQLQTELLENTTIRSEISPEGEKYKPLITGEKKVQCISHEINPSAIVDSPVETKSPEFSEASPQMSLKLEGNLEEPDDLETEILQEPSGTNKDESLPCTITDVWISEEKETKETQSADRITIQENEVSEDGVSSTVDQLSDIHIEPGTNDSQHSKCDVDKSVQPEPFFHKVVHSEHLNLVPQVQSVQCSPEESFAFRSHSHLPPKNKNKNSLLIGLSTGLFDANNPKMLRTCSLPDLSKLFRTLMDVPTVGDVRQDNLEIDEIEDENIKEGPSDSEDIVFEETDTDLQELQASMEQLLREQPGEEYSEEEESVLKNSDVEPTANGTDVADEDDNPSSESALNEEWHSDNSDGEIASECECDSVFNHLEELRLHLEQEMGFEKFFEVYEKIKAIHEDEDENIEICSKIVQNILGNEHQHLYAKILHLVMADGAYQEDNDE
UniProt Q96SW2, sequence (whole entry, looked up): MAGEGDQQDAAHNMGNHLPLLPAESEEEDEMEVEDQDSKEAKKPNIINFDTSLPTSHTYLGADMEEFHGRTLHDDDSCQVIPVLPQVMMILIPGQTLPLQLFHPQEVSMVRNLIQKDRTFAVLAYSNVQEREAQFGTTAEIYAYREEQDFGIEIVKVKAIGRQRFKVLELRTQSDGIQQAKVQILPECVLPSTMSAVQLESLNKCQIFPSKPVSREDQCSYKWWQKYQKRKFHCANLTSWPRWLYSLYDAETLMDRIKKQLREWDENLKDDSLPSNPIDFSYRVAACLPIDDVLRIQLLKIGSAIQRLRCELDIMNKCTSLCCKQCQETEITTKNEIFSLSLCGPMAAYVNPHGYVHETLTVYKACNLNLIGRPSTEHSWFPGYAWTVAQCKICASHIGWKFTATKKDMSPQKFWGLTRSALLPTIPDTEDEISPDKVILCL
UniProt Q13422, sequence (whole entry, looked up): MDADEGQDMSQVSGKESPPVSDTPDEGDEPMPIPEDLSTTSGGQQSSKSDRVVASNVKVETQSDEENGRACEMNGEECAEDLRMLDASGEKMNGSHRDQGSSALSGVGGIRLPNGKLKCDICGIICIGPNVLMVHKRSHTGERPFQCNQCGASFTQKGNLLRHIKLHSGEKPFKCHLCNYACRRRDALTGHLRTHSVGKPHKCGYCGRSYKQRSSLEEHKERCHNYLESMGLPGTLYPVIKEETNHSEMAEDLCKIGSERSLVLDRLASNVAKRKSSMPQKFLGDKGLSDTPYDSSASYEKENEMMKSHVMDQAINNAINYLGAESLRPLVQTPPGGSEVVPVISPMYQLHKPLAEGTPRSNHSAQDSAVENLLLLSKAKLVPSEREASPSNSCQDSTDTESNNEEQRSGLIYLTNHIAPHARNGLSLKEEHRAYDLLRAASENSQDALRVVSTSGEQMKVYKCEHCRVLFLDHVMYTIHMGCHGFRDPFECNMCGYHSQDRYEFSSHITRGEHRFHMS
UniProt Q12974, sequence (whole entry, looked up): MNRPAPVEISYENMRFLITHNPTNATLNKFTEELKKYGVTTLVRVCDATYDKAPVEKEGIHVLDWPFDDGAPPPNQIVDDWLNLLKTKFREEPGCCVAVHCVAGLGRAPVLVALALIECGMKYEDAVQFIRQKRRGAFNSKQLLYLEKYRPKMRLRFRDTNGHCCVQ

C[C@H]1CN(c2n[nH]c3nc(N[C@H]4CC[C@H](NS(=O)(=O)CCC(F)(F)F)CC4)ncc23)CCO1 — IC50 (NEK1 (Homo sapiens, UniProt Q96PY6); biochemical): ≥ 20 µM
CSCC[C@H](NC(=O)[C@@H](N)CCCNC(=N)N)C(=O)N[C@@H](Cc1ccc(O)cc1)C(=O)N[C@@H](CC(N)=O)C(=O)N1CCC[C@H]1C(=O)N[C@H](C(=O)N[C@@H](CC(C)C)C(=O)N[C@@H](CCCNC(=N)N)C(=O)N[C@@H](Cc1ccccc1)C(=O)O)C(C)C — IC50 (HLA class I histocompatibility antigen, A alpha chain allele A*02:01; binding): 9.58 µM
OC[C@H]1O[C@@H](OCCc2ccccc2)[C@H](O)[C@@H](O)[C@H]1O — EC50 (lacI (Escherichia coli, UniProt P03023); operator DNA release, nitrocellulose filter binding; together with: O1 operator DNA): 500 ± 35 µM
CC[C@H](C)[C@H](NC(=O)[C@H](CC(=O)O)NC(=O)[C@H](Cc1ccc(O)cc1)NC(=O)[C@H](CCC(N)=O)NC(=O)[C@@H](N)Cc1ccccc1)C(=O)N1CCC[C@H]1C(=O)N[C@@H](Cc1c[nH]cn1)C(=O)N[C@@H](CCC(=O)O)C(=O)N[C@@H](CCSC)C(=O)O — IC50 (HLA class I histocompatibility antigen, A alpha chain allele A*02:01; binding): 0.218 µM
CC(C)C[C@H](NC(=O)[C@H](CC(C)C)NC(=O)[C@H](CCCCN)NC(=O)c1ccc2c(c1)C(=O)OC21c2ccc(N(C)C)cc2Oc2cc(N(C)C)ccc21)C(=O)NCC(=O)N[C@@H](C)C(=O)N[C@@H](CCC(=O)O)C(=O)N[C@@H](CCC(=O)O)C(=O)N[C@@H](CCCCN)C(=O)N[C@@H](CCC(=O)O)C(=O)N[C@@H](Cc1ccc(OP(=O)(O)O)cc1)C(=O)N[C@@H](Cc1c[nH]cn1)C(=O)N[C@@H](C)C(=O)N[C@@H](CCC(=O)O)C(=O)NCC(=O)NCC(=O)N[C@@H](CCCCN)C(=O)N[C@H](C(=O)N[C@@H](CC(=O)O)C(=O)O)C(C)C — Kd (BLK SH2 domain; binding): 1.71 µM
O=S(=O)(NC(Cc1ccccc1)c1cccs1)c1cccc(Cl)c1O (stereo not shown) — Ki (ampC): 105 µM
CC(C)C[C@H](NC(=O)[C@@H](N)CCCCN)C(=O)N[C@@H](Cc1ccccc1)C(=O)N[C@@H](CO)C(=O)N[C@@H](CCCNC(=N)N)C(=O)N1CCC[C@H]1C(=O)N[C@@H](CC(C)C)C(=O)N[C@H](C(=O)N[C@@H](Cc1ccccc1)C(=O)O)[C@@H](C)O — IC50 (HLA class I histocompatibility antigen, A alpha chain allele A*24:02; binding): 0.134 µM
CCCOC(=O)C(Cc1ccoc1)NS(=O)(=O)c1cccc(Cl)c1O (stereo not shown) — Ki (ampC): 170 µM
COc1cccc(C(=O)Nc2ccc3c(c2)CN(C2CCC(=O)NC2=O)C3=O)c1 (stereo not shown) — DC50 (Cereblon/Ikaros (Homo sapiens, UniProt Q13422+Q96SW2); degrader, live-cell HiBiT kinetic; Jurkat Ikaros-HiBiT LgBiT): > 10 µM
CSCC[C@H](NC(=O)[C@@H](NC(=O)[C@@H]1CCCN1C(=O)[C@@H]1CCCN1C(=O)[C@H](CC(=O)O)NC(=O)[C@@H](NC(=O)[C@@H](N)CCCCN)C(C)C)C(C)C)C(=O)N[C@@H](CCC(=O)O)C(=O)N[C@@H](Cc1ccccc1)C(=O)O — IC50 (HLA class I histocompatibility antigen, A alpha chain allele A*02:01; binding): 34.4 µM
O=C(O)CCC(=O)C(=O)O — Ki (gltA (Klebsiella pasteurii, UniProt A0A9Q9S525, H227L)): 2220 ± 135 µM
Cn1ncc(S(=O)(=O)NC2CCSc3ccc(F)cc32)c1C(=O)O (stereo not shown) — Ki (ampC): 16.8 µM
COc1cc(Nc2ncc(F)c(Nc3ccc4c(n3)NC(=O)C(C)(C)O4)n2)cc(OC)c1OC — IC50 (Protein tyrosine phosphatase type IVA 2 (Homo sapiens, UniProt Q12974); PRL-2): > 10 µM
C[C@H]1O[C@@H](Oc2ccccc2[N+](=O)[O-])[C@H](O)[C@@H](O)[C@H]1O — EC50 (lacI (Escherichia coli, UniProt P03023, N125A); operator DNA binding, nitrocellulose filter binding; together with: O1 operator DNA): 200 ± 28 µM
CC[C@H](C)[C@H](NC(=O)[C@H](CCCCN)NC(=O)[C@H](CO)NC(=O)[C@H](Cc1ccccc1)NC(=O)[C@H](CCSC)NC(=O)[C@@H](N)CCCCN)C(=O)N[C@@H](CCSC)C(=O)N[C@H](C(=O)N[C@@H](Cc1ccc(O)cc1)C(=O)O)[C@@H](C)O — IC50 (HLA class I histocompatibility antigen, A alpha chain allele A*02:01; binding): 2.51 µM
COCCC(NS(=O)(=O)c1cccc(Cl)c1O)c1ccco1 (stereo not shown) — Ki (ampC): 66.8 µM
O=S(=O)(Nc1c(Cl)ccc2c1OCO2)c1cc(Cl)cc(Cl)c1O — Ki (ampC; enzyme activity, inhibitor, concentration-response curves; together with: nitrocefin 50 µM): 1.92 µM
CC[C@H](C)[C@H](NC(=O)[C@@H]1CCCN1C(=O)[C@H](CC(=O)O)NC(=O)[C@H](CCSC)NC(=O)[C@@H](N)Cc1ccc(O)cc1)C(=O)N1CCC[C@H]1C(=O)N[C@@H](Cc1c[nH]cn1)C(=O)N[C@@H](CCC(N)=O)C(=O)N[C@@H](Cc1ccc(O)cc1)C(=O)O — IC50 (HLA class I histocompatibility antigen, A alpha chain allele A*02:01; binding): 1.25 µM
CC[C@H](C)[C@H](NC(=O)[C@H](CC(=O)O)NC(=O)[C@H](C)NC(=O)[C@H](Cc1ccc(O)cc1)NC(=O)[C@H](CCCCN)NC(=O)c1ccc2c(c1)C(=O)OC21c2ccc(N(C)C)cc2Oc2cc(N(C)C)ccc21)C(=O)N[C@@H](CCC(=O)O)C(=O)N[C@@H](CO)C(=O)N[C@@H](CO)C(=O)N[C@@H](CC(N)=O)C(=O)N[C@@H](Cc1ccc(OP(=O)(O)O)cc1)C(=O)N[C@@H](CCSC)C(=O)N[C@@H](C)C(=O)N1CCC[C@H]1C(=O)N[C@@H](Cc1ccc(O)cc1)C(=O)N[C@@H](CC(=O)O)C(=O)N[C@@H](CC(N)=O)C(=O)N[C@@H](Cc1ccc(O)cc1)C(=O)N[C@@H](CC(=O)O)C(=O)O — Kd (BLK SH2 domain; binding): 1.01 µM
CCOc1ccc(NS(=O)(=O)c2cccc(Cl)c2O)c2ncccc12 — Ki (ampC): 18.2 µM
CC[C@H](C)[C@H](NC(=O)[C@@H](N)Cc1c[nH]cn1)C(=O)N[C@@H](Cc1ccccc1)C(=O)N[C@@H](CO)C(=O)N[C@@H](CCCNC(=N)N)C(=O)N1CCC[C@H]1C(=O)N[C@@H](CCSC)C(=O)N[C@H](C(=O)N[C@@H](Cc1ccccc1)C(=O)O)[C@@H](C)O — IC50 (HLA class I histocompatibility antigen, A alpha chain allele A*24:02; binding): 1.84 µM
CC[C@H](C)[C@H](NC(=O)[C@H](CC(=O)O)NC(=O)[C@H](C)NC(=O)[C@H](Cc1ccc(OP(=O)(O)O)cc1)NC(=O)[C@H](CCCCN)NC(=O)[C@@H](NC(=O)[C@H](CC(=O)O)NC(=O)CNC(=O)[C@H](CCCCN)NC(=O)[C@H](CCSC)NC(=O)[C@H](CC(=O)O)NC(=O)[C@H](CC(C)C)NC(=O)[C@H](CCSC)NC(=O)c1ccc2c(c1)C(=O)OC21c2ccc(N(C)C)cc2Oc2cc(N(C)C)ccc21)C(C)C)C(=O)N[C@@H](CCC(=O)O)C(=O)N[C@@H](CO)C(=O)N[C@@H](CO)C(=O)N[C@@H](CC(N)=O)C(=O)N[C@@H](CC(=O)O)C(=O)O — Kd (BLK SH2 domain; binding): 0.761 µM

Repeated from above:
CC(C)C[C@H](NC(=O)[C@@H](N)CCCCN)C(=O)N[C@@H](Cc1ccccc1)C(=O)N[C@@H](CO)C(=O)N[C@@H](CCCNC(=N)N)C(=O)N1CCC[C@H]1C(=O)N[C@@H](CC(C)C)C(=O)N[C@H](C(=O)N[C@@H](Cc1ccccc1)C(=O)O)[C@@H](C)O — IC50 (HLA class I histocompatibility antigen, A alpha chain allele A*24:02; binding): 0.134 µM
O=C(O)CCC(=O)C(=O)O — Ki (gltA (Klebsiella pasteurii, UniProt A0A9Q9S525, H227L)): 2220 ± 135 µM
CC[C@H](C)[C@H](NC(=O)[C@@H]1CCCN1C(=O)[C@H](CC(=O)O)NC(=O)[C@H](CCSC)NC(=O)[C@@H](N)Cc1ccc(O)cc1)C(=O)N1CCC[C@H]1C(=O)N[C@@H](Cc1c[nH]cn1)C(=O)N[C@@H](CCC(N)=O)C(=O)N[C@@H](Cc1ccc(O)cc1)C(=O)O — IC50 (HLA class I histocompatibility antigen, A alpha chain allele A*02:01; binding): 1.25 µM
